Results pooled from the literature.
Compare with care: the assays were run in different laboratories. Values joined by “and” are separate records of one study, mostly repeats; a detail may differ. Numbers after ± are the reported error.
Chain of UniProt P05177 (whole entry, looked up): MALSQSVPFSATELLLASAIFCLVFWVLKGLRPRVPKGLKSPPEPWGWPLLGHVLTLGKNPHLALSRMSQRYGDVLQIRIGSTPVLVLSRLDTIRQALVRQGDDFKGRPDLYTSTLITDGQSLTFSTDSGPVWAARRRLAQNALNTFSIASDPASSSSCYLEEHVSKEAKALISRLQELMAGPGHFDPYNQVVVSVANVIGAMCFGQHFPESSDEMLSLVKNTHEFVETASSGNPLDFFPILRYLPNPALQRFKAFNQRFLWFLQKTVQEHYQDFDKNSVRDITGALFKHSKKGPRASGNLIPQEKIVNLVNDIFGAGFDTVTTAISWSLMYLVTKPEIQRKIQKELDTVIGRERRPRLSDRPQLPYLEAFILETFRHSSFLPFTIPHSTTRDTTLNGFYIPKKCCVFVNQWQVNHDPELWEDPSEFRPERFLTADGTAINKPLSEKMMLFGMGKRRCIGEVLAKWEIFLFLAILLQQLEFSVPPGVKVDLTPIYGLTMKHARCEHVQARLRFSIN
Chain of UniProt Q92887 (whole entry, looked up): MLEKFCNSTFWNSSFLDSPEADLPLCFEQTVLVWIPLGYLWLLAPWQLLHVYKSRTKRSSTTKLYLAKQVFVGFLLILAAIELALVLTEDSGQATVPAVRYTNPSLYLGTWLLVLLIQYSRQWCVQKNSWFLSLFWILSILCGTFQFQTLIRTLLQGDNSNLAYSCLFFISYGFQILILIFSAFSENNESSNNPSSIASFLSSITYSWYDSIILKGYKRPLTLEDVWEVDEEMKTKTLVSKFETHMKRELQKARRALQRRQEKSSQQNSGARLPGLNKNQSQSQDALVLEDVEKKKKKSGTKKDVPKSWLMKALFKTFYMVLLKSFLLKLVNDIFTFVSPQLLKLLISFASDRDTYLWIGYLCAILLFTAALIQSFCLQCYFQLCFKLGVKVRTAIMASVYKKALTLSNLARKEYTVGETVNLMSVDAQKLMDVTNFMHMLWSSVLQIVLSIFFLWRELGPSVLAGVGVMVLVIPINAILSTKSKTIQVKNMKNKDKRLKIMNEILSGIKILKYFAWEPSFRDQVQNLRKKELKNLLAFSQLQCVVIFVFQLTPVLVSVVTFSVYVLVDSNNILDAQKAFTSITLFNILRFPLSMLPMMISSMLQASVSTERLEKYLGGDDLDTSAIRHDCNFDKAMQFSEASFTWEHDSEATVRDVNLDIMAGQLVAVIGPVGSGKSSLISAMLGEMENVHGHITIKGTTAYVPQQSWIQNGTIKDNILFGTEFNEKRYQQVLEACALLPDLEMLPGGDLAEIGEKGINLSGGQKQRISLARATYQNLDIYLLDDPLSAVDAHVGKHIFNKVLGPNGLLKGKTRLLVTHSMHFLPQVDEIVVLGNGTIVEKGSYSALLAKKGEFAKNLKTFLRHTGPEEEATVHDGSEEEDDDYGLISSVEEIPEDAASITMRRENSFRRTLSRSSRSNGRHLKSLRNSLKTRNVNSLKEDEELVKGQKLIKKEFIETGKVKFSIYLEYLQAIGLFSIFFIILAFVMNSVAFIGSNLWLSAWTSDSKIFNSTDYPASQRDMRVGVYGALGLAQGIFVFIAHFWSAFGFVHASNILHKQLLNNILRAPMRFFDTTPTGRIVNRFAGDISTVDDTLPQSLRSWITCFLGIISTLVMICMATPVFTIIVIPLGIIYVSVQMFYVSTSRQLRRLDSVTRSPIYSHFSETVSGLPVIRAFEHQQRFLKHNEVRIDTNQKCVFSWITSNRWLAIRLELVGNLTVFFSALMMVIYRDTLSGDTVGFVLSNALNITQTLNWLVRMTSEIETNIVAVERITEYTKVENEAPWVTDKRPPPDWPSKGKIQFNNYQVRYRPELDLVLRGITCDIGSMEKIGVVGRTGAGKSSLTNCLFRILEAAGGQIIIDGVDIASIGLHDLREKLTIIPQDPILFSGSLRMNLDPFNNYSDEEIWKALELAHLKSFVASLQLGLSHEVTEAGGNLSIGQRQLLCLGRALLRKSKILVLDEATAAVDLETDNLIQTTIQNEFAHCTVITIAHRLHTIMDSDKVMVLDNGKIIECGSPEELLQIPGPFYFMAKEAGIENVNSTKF

Structure (SMILES) | target or system | assay | test system | setting | how to read | measurement | value
O=C(c1ccc([C@H]2[C@@H](F)[C@@H](F)C[C@@H](F)[C@H]2F)cc1)N1CCCC1 |  | liver microsome stability | mouse liver microsomes | 1 µM |  | hepatic clearance | 83 mL/min/kg
CCN(CC)CC#CCNc1ccnc2cc(Cl)ccc12 | Salmonella typhimurium | mini-Ames test | TA98 | 1000.0 µg/well, with rat liver S9 |  | revertants per well | 10
COc1cc(/C=C/C=C2\SC(=S)NC2=O)ccc1O | HeLa | CellTiter-Glo |  | 20 µM, 24 h, unit not given | relative to: untreated | viability | 0.96 and 0.754
CC(C)C[C@@H]1NC(=O)[C@H](CO)NC(=O)[C@H](CC(=O)O)NC(=O)[C@@H]2CCCN2C(=O)[C@H]2CCCN2C(=O)[C@H](C(C)C)NC(=O)[C@H](CC(=O)O)NC(=O)[C@H](CC(N)=O)NC(=O)[C@H](CCCNC(=N)N)NC(=O)[C@H]([C@@H](C)O)NC(=O)[C@H](C(C)C)NC(=O)CCNC(=O)CCNC(=O)[C@H](Cc2ccccc2)NC(=O)[C@H](C(C)C)NC(=O)[C@H](CC(C)C)NC1=O | HEK-293T | subcellular fractionation LC-MS | nuclear fraction | 20 µM, 2 h |  | peptide amount | not detected
N#C[C@@H]1CC(F)(F)CN1C(=O)CNC(=O)c1ccnc2c(NC(=O)CCOCCOCCOCCOCCOCCOCCNC(=O)[C@H](CCCCNC(=O)CN3CCN(CC(=O)[O-])CCN(CC(=O)[O-])CCN(CC(=O)[O-])CC3)NC(=O)CCCc3ccc(I)cc3)cccc12.[177Lu+3] | U-87 MG tumour model |  | host not given, heart | 24 h, tumour-bearing |  | tracer uptake | 0.25 %ID/g
O=C1NC2(CC2)COc2ncc(F)cc2[C@H]2COCCN2c2ccn3ncc1c3n2 | Salmonella typhimurium | Ames test | TA98 | 5000 µg/plate, 48 h, together with: rat liver S9 |  | revertant colonies | 19 ± 6 revertants/plate
CNC(=O)C1CCCN(C(=O)C2CC3CCC2N3C(=O)[C@@H]2C[C@@H](O)CN2C(=O)NCc2cccc(Cl)c2F)C1 (mixture of isomers) | Cytochrome P450 1A2 (CYP1A2, Homo sapiens, UniProt P05177) | preincubation without NADPH | human | 16.7 µM | relative to: negative control | remaining activity | 98.3% and 101% and 98.5%
O=C(CN1CCOCC1)Nc1ccc(C2CCCCC2)cc1 |  | hepatocyte stability | cryopreserved human hepatocytes | 1 µM |  | hepatic clearance | 17 mL/min/kg
O=C1C2CC3CC1CC(C(=O)N1CCN(c4ccc([N+](=O)[O-])c5ncccc45)CC1)(C3)C2 | Salmonella typhimurium | Ames test | TA1535 | 0.78 µg/well, without S9 |  | mean revertant colonies | 6 colonies/well
O=C(Nc1ccc([C@H]2[C@@H](F)[C@@H](F)C[C@@H](F)[C@H]2F)cc1)C1CC1 |  | liver microsome stability | mouse liver microsomes | 1 µM |  | hepatic clearance | 36 mL/min/kg
N#C[C@@H]1CC(F)(F)CN1C(=O)CNC(=O)c1ccnc2c(NC(=O)[C@@H](N)CCCCNC(=O)CCOCCOCCOCCOCCOCCOCCNC(=O)CN3CCN(CC(=O)[O-])CCN(CC(=O)[O-])CCN(CC(=O)[O-])CC3)cccc12.[177Lu+3] | U-87 MG tumour model |  | host not given, bone | 4 h, tumour-bearing |  | tracer uptake | 0.37 %ID/g
O=C(c1ccc(C2CCCCC2)cc1)N1CCCC1 |  | hepatocyte stability | cryopreserved rat hepatocytes | 1 µM |  | hepatic clearance | 46 mL/min/kg
O=C(c1ccc(OCCN2CCCCC2)cc1)c1c(-c2ccc(O)cc2)sc2cc(O[C@@H]3O[C@H](C(=O)O)[C@@H](O)[C@H](O)[C@H]3O)ccc12 | ABCC2 (Homo sapiens, UniProt Q92887) | substrate | Sf9 membrane vesicles | pH 7 |  | intrinsic clearance | 79.3 µL/min/mg protein
O=C(NCCO)c1ccc(C2CCCCC2)cc1 |  | hepatocyte stability | cryopreserved human hepatocytes | 1 µM |  | hepatic clearance | 17 mL/min/kg
CC(C)OCCOCc1ccc(OCC(O)CN(N=O)C(C)C)cc1 (stereo not drawn) | Salmonella typhimurium | Ames test | TA98 | 50 µg/plate, 30 % rat S9 | relative to: solvent control | revertant fold increase | 0.8 fold

A few entries again:
Structure (SMILES) | target or system | assay | test system | setting | how to read | measurement | value
CC(C)C[C@@H]1NC(=O)[C@H](CO)NC(=O)[C@H](CC(=O)O)NC(=O)[C@@H]2CCCN2C(=O)[C@H]2CCCN2C(=O)[C@H](C(C)C)NC(=O)[C@H](CC(=O)O)NC(=O)[C@H](CC(N)=O)NC(=O)[C@H](CCCNC(=N)N)NC(=O)[C@H]([C@@H](C)O)NC(=O)[C@H](C(C)C)NC(=O)CCNC(=O)CCNC(=O)[C@H](Cc2ccccc2)NC(=O)[C@H](C(C)C)NC(=O)[C@H](CC(C)C)NC1=O | HEK-293T | subcellular fractionation LC-MS | nuclear fraction | 20 µM, 2 h |  | peptide amount | not detected
